Measured values collected from several papers.
Protocols differ between the studies behind these lines. “And” joins repeats or separate records; there may be more than shown.
uncharacterized protein: uncharacterized protein (Streptococcus mutans serotype c, UniProt Q8DS94)
histidine kinase ComD: histidine kinase ComD (Streptococcus pneumoniae serotype 2, UniProt A0A0H2ZM50)
rhlR: HTH-type quorum-sensing regulator RhlR (rhlR, Pseudomonas aeruginosa, UniProt P54292)
Chain of UniProt P54292 (whole entry, looked up): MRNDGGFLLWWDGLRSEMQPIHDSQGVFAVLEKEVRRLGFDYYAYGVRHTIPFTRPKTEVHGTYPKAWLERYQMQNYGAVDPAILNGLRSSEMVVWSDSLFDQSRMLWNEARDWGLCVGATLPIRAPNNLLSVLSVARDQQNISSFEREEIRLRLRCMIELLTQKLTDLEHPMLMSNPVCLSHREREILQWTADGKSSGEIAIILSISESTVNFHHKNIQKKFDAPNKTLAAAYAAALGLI
Chain of UniProt Q9VNB5 (whole entry, looked up): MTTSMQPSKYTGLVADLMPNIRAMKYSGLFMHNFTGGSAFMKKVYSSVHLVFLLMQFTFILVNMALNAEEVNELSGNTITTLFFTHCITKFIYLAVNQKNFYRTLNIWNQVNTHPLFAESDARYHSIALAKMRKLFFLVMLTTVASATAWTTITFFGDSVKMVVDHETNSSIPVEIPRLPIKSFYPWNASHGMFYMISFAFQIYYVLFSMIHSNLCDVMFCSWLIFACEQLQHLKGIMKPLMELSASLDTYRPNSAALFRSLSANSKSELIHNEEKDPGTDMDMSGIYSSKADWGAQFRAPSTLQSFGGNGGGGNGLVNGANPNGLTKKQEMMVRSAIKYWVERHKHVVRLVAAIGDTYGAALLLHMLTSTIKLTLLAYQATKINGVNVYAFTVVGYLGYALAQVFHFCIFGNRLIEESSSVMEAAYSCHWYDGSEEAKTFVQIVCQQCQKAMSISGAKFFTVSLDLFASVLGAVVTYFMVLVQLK
Chain of UniProt P50391 (whole entry, looked up): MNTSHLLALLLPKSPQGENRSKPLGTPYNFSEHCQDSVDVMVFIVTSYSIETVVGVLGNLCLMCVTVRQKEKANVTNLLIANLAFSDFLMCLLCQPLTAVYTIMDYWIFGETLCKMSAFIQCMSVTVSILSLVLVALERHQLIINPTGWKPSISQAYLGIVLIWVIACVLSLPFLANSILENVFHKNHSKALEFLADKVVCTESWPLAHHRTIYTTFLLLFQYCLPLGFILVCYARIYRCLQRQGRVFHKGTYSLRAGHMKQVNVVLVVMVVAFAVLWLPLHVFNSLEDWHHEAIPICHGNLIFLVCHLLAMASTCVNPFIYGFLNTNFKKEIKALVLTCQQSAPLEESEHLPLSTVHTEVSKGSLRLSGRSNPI
Chain of UniProt P28223 (whole entry, looked up): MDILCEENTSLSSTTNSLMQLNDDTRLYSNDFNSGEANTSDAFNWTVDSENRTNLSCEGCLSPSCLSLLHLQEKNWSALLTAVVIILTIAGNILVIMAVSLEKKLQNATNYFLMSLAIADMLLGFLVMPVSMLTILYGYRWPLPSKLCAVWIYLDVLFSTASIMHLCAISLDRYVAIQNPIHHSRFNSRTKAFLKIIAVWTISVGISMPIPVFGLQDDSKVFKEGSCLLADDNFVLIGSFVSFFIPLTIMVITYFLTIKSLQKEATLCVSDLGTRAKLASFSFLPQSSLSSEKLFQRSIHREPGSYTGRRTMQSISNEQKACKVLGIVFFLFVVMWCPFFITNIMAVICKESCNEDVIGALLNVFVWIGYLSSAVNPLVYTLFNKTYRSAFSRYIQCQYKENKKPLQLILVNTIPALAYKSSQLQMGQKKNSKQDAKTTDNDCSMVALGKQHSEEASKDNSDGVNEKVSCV
Chain of UniProt P55085 (whole entry, looked up): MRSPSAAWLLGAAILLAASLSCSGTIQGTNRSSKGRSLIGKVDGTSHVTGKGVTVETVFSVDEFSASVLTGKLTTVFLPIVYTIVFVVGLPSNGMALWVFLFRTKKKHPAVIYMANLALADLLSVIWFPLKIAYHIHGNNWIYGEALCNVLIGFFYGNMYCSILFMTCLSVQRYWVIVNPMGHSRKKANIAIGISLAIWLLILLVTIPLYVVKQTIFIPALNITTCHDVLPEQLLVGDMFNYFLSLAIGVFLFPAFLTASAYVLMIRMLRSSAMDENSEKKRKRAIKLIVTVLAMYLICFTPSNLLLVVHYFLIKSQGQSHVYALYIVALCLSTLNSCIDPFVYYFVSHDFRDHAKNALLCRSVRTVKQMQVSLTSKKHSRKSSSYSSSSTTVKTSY

Compound	target	assay	system	conditions	EC50
CC(C)C[C@H](NC(=O)[C@H](C)NC(=O)[C@H](CCC(N)=O)NC(=O)[C@@H](NC(=O)[C@H](Cc1ccccc1)NC(=O)[C@H](CO)NC(=O)[C@H](CCCNC(=N)N)NC(=O)[C@H](CC(N)=O)NC(=O)[C@H](Cc1ccccc1)NC(=O)[C@H](CC(C)C)NC(=O)[C@H](CCCNC(=N)N)NC(=O)[C@H](Cc1ccccc1)NC(=O)[C@H](Cc1ccccc1)NC(=O)[C@@H](NC(=O)[C@H](CO)NC(=O)[C@H](CC(C)C)NC(=O)[C@H](CO)NC(=O)CNC(=O)[C@@H](N)CO)[C@@H](C)O)[C@@H](C)O)C(=O)NCC(=O)N[C@@H](CCCCN)C(=O)O	uncharacterized protein	–	Streptococcus mutans	–	240 nM
CCCn1c(SCC(=O)N2CCc3cc(CC)ccc32)nnc1-c1cccnc1	Orco (Drosophila melanogaster, UniProt Q9VNB5)	calcium mobilization, agonist	HEK293 expressing Orco	–	17600 nM
C#Cc1cncc([C@@H]2CCCCN2)c1	Acetylcholine receptor subunit alpha-type acr-16 (Ascaris suum, UniProt F1KYJ9)	ion current, agonist, two-electrode voltage clamp	–	oocytes	100 nM
CC[C@H](C)[C@H](NC(=O)[C@H](CC(N)=O)NC(=O)[C@H](Cc1ccccc1)NC(=O)[C@H](Cc1ccccc1)NC(=O)[C@@H](NC(=O)[C@H](CC(N)=O)NC(=O)[C@H](Cc1c[nH]cn1)NC(=O)[C@@H](NC(=O)[C@H](CCC(N)=O)NC(=O)[C@H](CCCNC(=N)N)NC(=O)[C@@H](NC(=O)[C@@H](N)CCC(=O)O)[C@@H](C)CC)[C@@H](C)O)[C@@H](C)CC)C(=O)N[C@@H](Cc1ccccc1)C(=O)N[C@@H](CCCCN)C(=O)N[C@@H](CCCNC(=N)N)C(=O)N[C@@H](CCCNC(=N)N)C(=O)O	histidine kinase ComD	reporter gene, agonist	Streptococcus pneumoniae, D39 comX::lacZ	30 min, pH 7.3, 37 °C	> 10000 nM
O=C(NC1CCSC1=O)C1CCC1 (centres unmarked)	rhlR	reporter gene, agonist, refers to: rhlI-gfp fluorescence	PAO-JP2 reporter	–	1650 nM
Cc1cc(C2=CCN(CC3OCCO3)CC2)cc([N+](=O)[O-])c1N	HTR2A (Homo sapiens, UniProt P28223)	–	–	–	933 nM
CC(=O)N[C@@H](CCCNC(=N)N)C(=O)N[C@H](Cc1ccc(O)cc1)C(=O)N[C@@H](CCCNC(=N)NC(=O)NCCCCN)C(=O)N[C@@H](CC(C)C)C(=O)N[C@@H](CCCNC(=N)N)C(=O)N[C@@H](Cc1ccc(O)cc1)C(N)=O	NPY4R (Homo sapiens, UniProt P50391)	calcium signal, agonist	–	–	608 nM
CC(C)C[C@H](NC(=O)[C@H](C)NC(=O)[C@H](CCC(N)=O)NC(=O)[C@@H](NC(=O)[C@H](Cc1ccccc1)NC(=O)[C@H](CO)NC(=O)[C@H](CCCNC(=N)N)NC(=O)[C@H](CC(N)=O)NC(=O)[C@H](Cc1ccccc1)NC(=O)[C@H](CC(C)C)NC(=O)[C@H](CCCNC(=N)N)NC(=O)[C@H](Cc1ccccc1)NC(=O)[C@H](Cc1ccccc1)NC(=O)[C@@H](NC(=O)[C@H](CO)NC(=O)[C@H](CC(C)C)NC(=O)[C@H](CO)NC(=O)CN)[C@@H](C)O)[C@@H](C)O)C(=O)NCC(=O)N[C@@H](CCCCN)C(=O)O	uncharacterized protein	–	Streptococcus mutans	–	23 nM
CC1(C)C(C=C(Cl)Cl)C1C(=O)OCc1c(F)c(F)c(F)c(F)c1F (centres unmarked)	Voltage-gated sodium channel (Musca domestica, UniProt Q25439)	cation influx, activator, membrane potential dye	HEK293 expressing Musca domestica VGSC	–	736 nM
Cc1cc(O)c(I)c(C)c1C[C@H](N)C(=O)N[C@H](C)C(=O)N[C@@H](Cc1ccccc1)C(=O)N[C@@H](Cc1ccccc1)C(N)=O	Oprk1 (Mus musculus, UniProt P33534)	agonist	–	–	> 500 nM
CC(C)C[C@H](NC(=O)[C@H](CCCNC(=N)N)NC(=O)[C@H](Cc1ccccc1)NC(=O)[C@H](Cc1ccccc1)NC(=O)[C@@H](NC(=O)[C@H](CO)NC(=O)[C@H](CC(C)C)NC(=O)[C@@H](CO)NC(=O)CNC(=O)[C@@H](N)CO)[C@@H](C)O)C(=O)N[C@@H](Cc1ccccc1)C(=O)N[C@@H](CC(N)=O)C(=O)N[C@@H](CCCNC(=N)N)C(=O)N[C@@H](CO)C(=O)N[C@@H](Cc1ccccc1)C(=O)N[C@H](C(=O)N[C@@H](CCC(N)=O)C(=O)N[C@@H](C)C(=O)O)[C@@H](C)O	uncharacterized protein	–	Streptococcus mutans	–	9.4 nM
O=C(N[C@H]1CCOC1=O)C1CCCC1	rhlR	reporter gene, agonist	PAO-JP2 prhlI-LVAgfp	added: OdDHL 100 nM	4500 nM and 4600 nM
CC(C)C[C@H](NC(=O)[C@@H]1CCC(=O)N1)C(=O)N[C@H](C(=O)N[C@@H](Cc1ccccc1)C(=O)N[C@H](C(=O)N[C@@H](CO)C(=O)N[C@@H](CO)C(=O)N[C@@H](Cc1c[nH]c2ccccc12)C(=O)NCC(N)=O)[C@@H](C)O)[C@@H](C)O	Adipokinetic hormone receptor (Bombyx mori, UniProt Q8T6U9)	–	–	–	6.4 nM
CC[C@H](C)[C@H](NC(=O)[C@H](CCCNC(=N)N)NC(=O)[C@@H]1CCCN1C(=O)[C@@H](NC(=O)[C@@H](NC(=O)[C@H](CCCCN)NC(=O)[C@H](CC(C)C)NC(=O)[C@H](CC(N)=O)NC(=O)[C@H](CCCCN)NC(=O)[C@@H](NC(=O)[C@H](C)NC(=O)[C@H](Cc1ccccc1)NC(=O)[C@H](CC(N)=O)NC(=O)[C@H](CCC(=O)O)NC(=O)CN)[C@@H](C)CC)[C@@H](C)O)[C@@H](C)CC)C(N)=O	Ecdysis triggering hormone receptor A (Aedes aegypti, UniProt A7J264)	–	–	–	~97 nM
CC[C@H](C)[C@H](NC(=O)[C@H](CC(C)C)NC(=O)c1ccco1)C(=O)NCC(=O)N[C@@H](CCCN=C(N)N)C(=O)N[C@@H](CC(C)C)C(=O)N[C@@H](CCCN)C(N)=O	F2RL1 (Homo sapiens, UniProt P55085)	cell impedance response, agonist, real-time cell analysis	16HBE14o-	240 min	130 nM
CC[C@H](C)[C@H](NC(=O)[C@H](Cc1ccccc1)NC(=O)[C@H](Cc1c[nH]cn1)NC(=O)[C@@H](NC(=O)[C@H](CC(C)C)NC(=O)[C@H](CCCNC(=N)N)NC(=O)[C@@H](NC(=O)[C@@H](N)CCC(=O)O)[C@@H](C)CC)[C@@H](C)O)C(=O)N[C@@H](Cc1ccccc1)C(=O)N[C@@H](Cc1ccccc1)C(=O)N[C@@H](Cc1ccccc1)C(=O)N[C@@H](Cc1ccccc1)C(=O)N[C@@H](Cc1ccccc1)C(=O)N[C@@H](CCCCN)C(=O)N[C@@H](CCCNC(=N)N)C(=O)N[C@@H](CCCNC(=N)N)C(=O)O	histidine kinase ComD	reporter gene, agonist	Streptococcus pneumoniae, D39 comX::lacZ	30 min, pH 7.3, 37 °C	> 10000 nM
O=C(NC1CCCC1=O)C1CCC1 (centres unmarked)	rhlR	reporter gene, agonist, refers to: rhlI-gfp fluorescence	PAO-JP2 reporter	–	7350 nM

Repeated from above:
Compound	target	assay	system	conditions	EC50
CC(C)C[C@H](NC(=O)[C@H](C)NC(=O)[C@H](CCC(N)=O)NC(=O)[C@@H](NC(=O)[C@H](Cc1ccccc1)NC(=O)[C@H](CO)NC(=O)[C@H](CCCNC(=N)N)NC(=O)[C@H](CC(N)=O)NC(=O)[C@H](Cc1ccccc1)NC(=O)[C@H](CC(C)C)NC(=O)[C@H](CCCNC(=N)N)NC(=O)[C@H](Cc1ccccc1)NC(=O)[C@H](Cc1ccccc1)NC(=O)[C@@H](NC(=O)[C@H](CO)NC(=O)[C@H](CC(C)C)NC(=O)[C@H](CO)NC(=O)CNC(=O)[C@@H](N)CO)[C@@H](C)O)[C@@H](C)O)C(=O)NCC(=O)N[C@@H](CCCCN)C(=O)O	uncharacterized protein	–	Streptococcus mutans	–	240 nM
CCCn1c(SCC(=O)N2CCc3cc(CC)ccc32)nnc1-c1cccnc1	Orco (Drosophila melanogaster, UniProt Q9VNB5)	calcium mobilization, agonist	HEK293 expressing Orco	–	17600 nM
